Measured values from different studies.
Protocols differ between the studies behind these lines. Several values in a cell are separate wells, animals, samples, runs or records. Values after ≈ are worked out from the molar mass of the structure shown.

Nc1ncnc2c([C@@H]3N[C@H](CO)[C@@H](O)[C@H]3O)c[nH]c12  inhibition (Measles morbillivirus; viral replication; Vero 76, Chicago; 0.9 µM): 5%
Nc1ncnc2c1ncn2[C@@H]1O[C@@H]2COP(=O)(O)O[C@H]3[C@@H](O)[C@H](n4cnc5c(=O)[nH]cnc54)O[C@@H]3COP(=O)(O)O[C@H]2[C@H]1O  fold enrichment (West Nile virus; RNA sequencing Reactome analysis, refers to: G2/M Checkpoints (R-HSA-69481); HFF-1; concentration not given, upregulated pathways, together with: West Nile virus infection; relative to: WNV-infected without compound): 3.68
CC1(C)CC(=O)c2c(C(F)(F)F)nn(-c3ccc(C(N)=O)c(N[C@H]4CC[C@H](O)CC4)c3)c2C1  selectivity index (human alphaherpesvirus 1; primary human fibroblasts, K26 GFP; CC50 capped at 10.00 µM; relative to: CC50 over IC50): > 200
Cn1cc(C2=C(c3cn(C4CCN(Cc5ccccn5)CC4)c4ccccc34)C(=O)NC2=O)c2ccccc21  metabolic activity (Aspergillus fumigatus; 20 µM; relative to: untreated): ≥ 80%
CCCC(CCC)C(=O)O  log2 fold change (Artemia franciscana; LC-MS/MS metabolomics, refers to: 1-aminocyclopropanecarboxylic acid; larvae; concentration not given, 24 h, LC1 concentration; relative to: vehicle): 0.963
CC[C@H](C)[C@H](NC(=O)[C@H](C)NC(=O)[C@H](CCCCN)NC(=O)[C@H](CC(C)C)NC(=O)[C@H](C)NC(=O)[C@@H](NC(=O)[C@H](Cc1c[nH]cn1)NC(=O)[C@H](CC(C)C)NC(=O)[C@@H](NC(=O)[C@@H](NC(=O)[C@H](CCCCN)NC(=O)[C@H](C)NC(=O)[C@H](C)NC(=O)[C@H](CO)NC(=O)[C@H](CCCCN)NC(=O)[C@H](Cc1ccccc1)NC(=O)[C@@H](NC(=O)[C@H](CCCCN)NC(=O)[C@H](CC(C)C)NC(=O)[C@H](Cc1ccccc1)NC(=O)[C@H](CO)NC(=O)[C@H](CCCCN)NC(=O)[C@H](Cc1c[nH]c2ccccc12)NC(=O)[C@H](CCCCN)NC(C)=O)[C@@H](C)O)[C@@H](C)O)C(C)C)[C@@H](C)O)C(=O)N[C@@H](CO)C(=O)N[C@@H](CO)C(N)=O  MBC90 (Enterobacter cloacae; 40 strains): 32 µg/mL (≈ 10.9 µM)
COc1ccc2c(ccc3oc([N+](=O)[O-])cc32)c1  MIC90 (Mycobacterium avium subsp. hominissuis; REMA; ATCC 25291): 0.25 µg/mL (≈ 1.03 µM)
OB(O)c1csc2ccccc12  biofilm formation (Staphylococcus aureus; crystal violet; USA300 wild type; 5 µM; relative to: wild type untreated): 70.8% and 51.8% and 51.2%
O=C(O)c1ccc2c3c1cccc3c(=O)n1c3ccccc3nc21  inhibition (murine hepatitis virus; viral replication, nanoluciferase reporter; DBT; 1 µM, 10 h; relative to: DMSO vehicle): 6%
CC[C@H](C)[C@H](NC(=O)[C@H](CCCNC(=N)N)NC(=O)[C@H](Cc1c[nH]c2ccccc12)NC(=O)[C@H](CCCNC(=N)N)NC(=O)[C@H](Cc1c[nH]c2ccccc12)NC(=O)[C@H](Cc1c[nH]c2ccccc12)NC(=O)[C@H](Cc1c[nH]c2ccccc12)NC(=O)[C@H](CCCNC(=N)N)NC(=O)[C@H](Cc1c[nH]c2ccccc12)NC(=O)[C@@H](N)CCCNC(=N)N)C(N)=O  MIC (Candida parapsilosis; broth microdilution; CGMCC 2.399, RPMI 1640-MOPS; 48 h, 30 °C): 16 µM (≈ 27 µg/mL)
CNC(=O)c1ccc(Nc2ncc(C(F)(F)F)c(NCc3nccnc3N(C)S(C)(=O)=O)n2)cc1  inhibition (murine hepatitis virus; viral replication, nanoluciferase reporter; DBT; 1 µM; relative to: DMSO vehicle): 19%
CS(=O)(=O)CCCn1c(Cn2c(=O)n(CC(F)(F)F)c3ccncc32)cc2cc(Cl)ccc21  LS mean difference vs placebo (respiratory syncytial virus; RT-qPCR; hospitalized infants 1-24 months, nasal swab; oral, 9, 6 or 5 mg/kg daily, day 5, high dose by age cohort; relative to: placebo): -0.34 log10 copies/mL
COC(=O)C1=C(C)NC(C)=C(C(=O)OC(C)(C)CN(C)CCC(c2ccccc2)c2ccccc2)C1c1cccc([N+](=O)[O-])c1 (stereo not shown)  metabolic activity (Aspergillus fumigatus; Alamar blue; 15.6 µg/mL, 48 h, together with: caspofungin 0.2 µg/mL): 26.1% and 20.1%
O=C(NCc1cccc(O)c1)Nc1nc(-c2ccncc2)cs1  inhibition (murine hepatitis virus; viral replication, nanoluciferase reporter; DBT; 1 µM; relative to: DMSO vehicle): 13%
N#Cc1ccc2c(ccc3oc([N+](=O)[O-])cc32)c1  MIC90 (Enterobacter cloacae; REMA): 32 µg/mL (≈ 134 µM)
CC[C@H](C)[C@H](NC(=O)[C@H](CCCNC(=N)N)NC(=O)[C@H](Cc1c[nH]c2ccccc12)NC(=O)[C@H](CCCNC(=N)N)NC(=O)[C@H](Cc1c[nH]c2ccccc12)NC(=O)[C@H](Cc1c[nH]c2ccccc12)NC(=O)[C@H](Cc1c[nH]c2ccccc12)NC(=O)[C@H](CCCNC(=N)N)NC(=O)[C@H](Cc1c[nH]c2ccccc12)NC(=O)[C@H](CCCNC(=N)N)NC(=O)CN)C(N)=O  MIC (Candida albicans; broth microdilution; CGMCC 2.209, RPMI 1640-MOPS; 48 h, 30 °C, together with: NH4Cl 6 µM): 8 µM (≈ 13.9 µg/mL)
O=[N+]([O-])c1cc2c(ccc3cc(Br)ccc32)o1  MIC90 (Mycobacterium avium subsp. hominissuis; REMA; ATCC 25291): > 32 µg/mL
O=C1Nc2ccc(I)cc2C1=Cc1cc(Br)c(O)c(Br)c1  metabolic activity (Aspergillus fumigatus; 20 µM; relative to: untreated): ≥ 80%
Cn1c(=O)ccc2ccc(F)c(CCNC[C@H]3CN(c4cnc5c(n4)NC(=O)CO5)C(=O)O3)c21  MIC90 (Helicobacter pylori): < 0.015 µg/mL
CC1=C(C#N)C(c2ccc3c(c2)c(NC(=O)c2ccccc2C)nn3C)C(C#N)=C(C)N1  inhibition (murine hepatitis virus; viral replication, nanoluciferase reporter; DBT; 1 µM, 10 h; relative to: DMSO vehicle): -7%
N=C(N)NCCC[C@H](NC(=O)[C@H](Cc1c[nH]c2ccccc12)NC(=O)[C@H](CCCNC(=N)N)NC(=O)[C@H](Cc1c[nH]c2ccccc12)NC(=O)[C@H](Cc1c[nH]c2ccccc12)NC(=O)[C@H](Cc1c[nH]c2ccccc12)NC(=O)[C@H](CCCNC(=N)N)NC(=O)[C@H](Cc1c[nH]c2ccccc12)NC(=O)[C@@H](N)CCCNC(=N)N)C(=O)N[C@@H](Cc1c[nH]c2ccccc12)C(N)=O  MIC (Candida albicans; broth microdilution; alveolar fluid isolate, RPMI 1640-MOPS; 48 h, 30 °C): 16 µM (≈ 28.1 µg/mL)
CCN(CCCOc1ccc2c(Nc3cc(CC(=O)Nc4cccc(F)c4)n[nH]3)ncnc2c1)CCOP(=O)(O)O  inhibition (murine hepatitis virus; viral replication, nanoluciferase reporter; DBT; 1 µM, 10 h; relative to: DMSO vehicle): -8%
Cc1c2c(nn1C)CSCc1cc(n(C)n1)CSc1cc(c3ccccc3c1)OCCCc1c(C(=O)O)n(C)c3c-2c(Cl)ccc13  fold change (Staphylococcus aureus; label-free quantitative proteomics, refers to: SAOUHSC_00864 protein; SA113; concentration not given; relative to: untreated control): 0.0254
CNc1nc(-c2ccc3c(N)n[nH]c3c2)cc(N2C[C@@H](C(=O)NC3CCCCC3)CC[C@H]2C)n1  inhibition (murine hepatitis virus; viral replication, nanoluciferase reporter; DBT; 1 µM, 10 h; relative to: DMSO vehicle): 35%
CC(=O)C1=CC[C@H]2[C@@H]3CCC4=CC(=O)CC[C@]4(C)[C@H]3C[C@@H](O)[C@]12C  IC50 (Leishmania mexicana; parasite growth, Giemsa stain count; C57BL/6 mouse bone marrow-derived macrophages, amastigotes; 48 h): 1400 nM

Some of these lines once more:
COc1ccc2c(ccc3oc([N+](=O)[O-])cc32)c1  MIC90 (Mycobacterium avium subsp. hominissuis; REMA; ATCC 25291): 0.25 µg/mL (≈ 1.03 µM)
OB(O)c1csc2ccccc12  biofilm formation (Staphylococcus aureus; crystal violet; USA300 wild type; 5 µM; relative to: wild type untreated): 70.8% and 51.8% and 51.2%
